{"data": "Experimental data gathered from unrelated publications", "target": "Serine/threonine-protein kinase LATS2 (LATS2, Homo sapiens, UniProt Q9NRM7)", "note": "Lines come from different studies, so protocols differ. Several values in a cell are separate wells, animals, samples, runs or records."}
{"Compound": "Cc1cnc2nc1Nc1cccc(c1)COC/C=C/COCc1cc(ccc1OCCN1CCOCC1)N2", "test": "cell-free assay", "conditions": "0.1 µM", "endpoint": "remaining signal", "result": "96%"}
{"Compound": "CC(C)=CC1OC(C)(C)C2C=C3C(=O)C(Cl)=CC(O)C3C3C(O)C4OC4C(=O)C132 (stereo not shown)", "test": "cell-free assay, competition with immobilised ligand", "conditions": "10 µM", "endpoint": "remaining binding", "result": "99%"}
{"Compound": "CCn1cc(C(=O)O)c(=O)c2c(N)c(F)c(NC3CCCCC3)cc21", "test": "kinase activity", "conditions": "0.1 µM, added: ATP at Km", "endpoint": "inhibition", "result": "-0.4%"}
{"Compound": "C=CC(=O)N1CCc2ccc(-n3c(=O)ccc4cnc5ccc(-c6cnn(C)c6)cc5c43)cc21", "test": "KINOMEscan", "conditions": "1 µM", "how to read": "relative to: DMSO control", "endpoint": "remaining binding", "result": "70%"}
{"Compound": "Cc1cccc(O[C@H]2CCC[C@@H](C(C)CNCc3ccncc3)C2)c1 (relative stereo)", "test": "kinase activity, kinome panel screening", "conditions": "10 µM", "endpoint": "inhibition", "result": "-2%"}
{"Compound": "CNC(=O)C1CCN(c2cc(C)c(F)cc2NC(=O)c2ccc(-c3cc(O)ccc3C)c(C)c2)CC1", "test": "binding, competition with immobilised ligand", "conditions": "1 µM", "endpoint": "remaining binding", "result": "84%"}
{"Compound": "Cc1c[nH]c2nccc(-c3ccc(C(=O)N[C@@H]4c5c(F)cc(C(F)F)cc5C[C@@H]4O)cn3)c12", "test": "binding, competition with immobilised ligand", "conditions": "3 µM", "endpoint": "remaining binding", "result": "0%"}
{"Compound": "C=CC(=O)Nc1cccc(-c2cnc3[nH]cc(C(=O)NC(C)(C)C)c3n2)c1", "test": "kinase activity", "conditions": "0.1 µM", "endpoint": "inhibition", "result": "5% and 4%"}
{"Compound": "COc1c(Cl)cccc1Nc1c(-c2ccncc2C#C[C@@]2(C)CCCN2C(=O)/C=C/CN(C)C)[nH]c2c1C(=O)NCC2", "test": "binding, competition with immobilised ligand", "conditions": "3 µM", "endpoint": "remaining binding", "result": "76%"}
{"Compound": "C=CC(=O)N1Cc2nc(-c3cc(-c4cc(Cl)cnc4Cl)c(F)cc3F)n(-c3ccncn3)c2C1", "test": "cell-free assay, inhibitor", "conditions": "1 µM", "endpoint": "inhibition", "result": "5.1%"}
{"Compound": "C=CC(=O)N1CCCC(n2c(=O)c3ncccc3n(Cc3ccc(Oc4ccccc4)cc3)c2=O)C1 (stereo not shown)", "test": "cell-free assay, competition with immobilised ligand", "conditions": "1 µM", "endpoint": "remaining binding", "result": "77%"}
{"Compound": "NC(=O)[C@@H](O)C[C@H]1CCc2sc3ncnc(O[C@H]4CC[C@H](N5CCOCC5)CC4)c3c21", "test": "enzyme activity, inhibitor", "conditions": "10 µM", "endpoint": "inhibition", "result": "10%"}
{"Compound": "COc1cc(Nc2nc(C)cc(-c3cnn4nc(OC)ccc34)n2)cc(C(F)(F)F)c1", "test": "inhibitor", "conditions": "1 µM", "how to read": "relative to: control", "endpoint": "remaining activity", "result": "71%"}
{"note": "Excerpt of the above:"}
{"Compound": "Cc1cccc(O[C@H]2CCC[C@@H](C(C)CNCc3ccncc3)C2)c1 (relative stereo)", "test": "kinase activity, kinome panel screening", "conditions": "10 µM", "endpoint": "inhibition", "result": "-2%"}
